Published values from different studies.
Lines come from different studies, so protocols differ. Numbers after ± are the reported error.
Organism: Salmonella typhimurium

Compound = N#C[C@@]1(n2ccc(N)nc2=O)O[C@H](CO)[C@@H](O)[C@H]1O; test system = TA100; setting = 100 µM, without S9; how to read = relative to: control; endpoint = viability; result = 87%
Compound = O=[N+]([O-])c1ccc(NC2CCNCC2)c(C(F)(F)F)c1; assay = SOS/umu test; test system = TA1535/pSK1002; setting = 0.031 mg/mL, 4 h, with S9, full range; endpoint = survival; result = 107%
Compound = O=NN1CCN(C2CCCC2)CC1; assay = mutagenicity, Ames plate incorporation; test system = TA100; setting = 50 µg/plate, 3 d, without S9, methanol; endpoint = revertant colonies per plate; result = 134 ± 18
Compound = OC(CCN1CC=C(c2ccc(F)cc2)CC1)c1ccc(F)c2ccccc12 (stereo not drawn); assay = genotoxicity, SOS/umu test; test system = TA1535/pSK1002; setting = 0.016 mg/mL, 4 h, with S9, lower range; endpoint = induction factor; result = 0.6
Compound = CC(C)N(C)N=O; assay = mutagenicity, Ames plate incorporation; test system = TA100; setting = 150 µg/plate, 3 d, without S9, methanol; endpoint = revertant colonies per plate; result = 174 ± 18
Compound = COc1cccc(-c2n[nH]c(SCc3ccccn3)n2)c1OC; assay = Ames test, preincubation; test system = TA100; setting = 1.0 mg/plate, without S9; endpoint = revertant colonies per plate; result = 104
Compound = Cc1cc(C(=O)NC(C)(C)COc2cccc3c2C(N)=NS(=O)(=O)N3)cc(C)n1; assay = Ames test, initial; test system = TA98; setting = 5.00 µg/plate; how to read = relative to: solvent control; endpoint = revertant ratio; result = 1.2
Compound = CN(N=O)c1ccc(F)cc1; assay = mutagenicity, Ames plate incorporation; test system = TA100; setting = 2500 µg/plate, 3 d, without S9, methanol; endpoint = revertant colonies per plate; result = 137 ± 18
Compound = O=[N+]([O-])c1ccc(N2CCC(NCCC(O)c3ccc(F)c4ccccc34)CC2)c(C(F)(F)F)c1 (stereo not drawn); assay = genotoxicity, SOS/umu test; test system = TA1535/pSK1002; setting = 0.031 mg/mL, 4 h, without S9, full range; endpoint = induction factor; result = 0.48
Compound = CC(C)N(N=O)C(C)C; assay = mutagenicity, Ames plate incorporation; test system = TA1537; setting = 2500 µg/plate, without S9, methanol; endpoint = revertant colonies per plate; result = 13.3 ± 4
Compound = O=[N+]([O-])c1ccc(N2CCN(CCC(O)c3ccc(F)cc3)CC2)c(C(F)(F)F)c1 (stereo not drawn); assay = SOS/umu test; test system = TA1535/pSK1002; setting = 0.125 mg/mL, 4 h, without S9, full range; endpoint = survival; result = 56.7%
Compound = CC(=O)N1CCC(C(=O)N2CCN3C(=O)c4cc(-c5ccccc5)ccc4NC(=O)C3C2)CC1 (stereo not drawn); test system = TA1537; setting = 1.58 µg/plate; how to read = relative to: vehicle; endpoint = fold increase in revertants; result = 1.1
